Published values collected from several papers.
Compare with care: the assays were run in different laboratories. Numbers after ± are the reported error.

| SMILES | assay | test system | conditions | scale | half-life |
| --- | --- | --- | --- | --- | --- |
| Nc1ccc(-c2nc([C@H]3CCc4cc(-c5cc(Cl)ccc5-n5cnnn5)cc(=O)n43)c(F)[nH]2)c(F)n1 |  | human, plasma | oral, 250 mg once daily, day 14, fed |  | 22.1 h |
| CO[C@H]1C[C@@H]2CC[C@@H](C)[C@@](O)(O2)C(=O)C(=O)N2CCCC[C@H]2C(=O)O[C@H]([C@H](C)C[C@@H]2CC[C@@H](O)[C@H](OC)C2)CC(=O)[C@H](C)/C=C(\C)[C@@H](O)[C@@H](OC)C(=O)[C@H](C)C[C@H](C)/C=C/C=C/C=C/1C |  | human, whole blood | oral, 20 mg, without grapefruit juice |  | 26 h |
| C=CC(=O)N1CCC[C@@H](n2c(=O)n(-c3ccc(Oc4ccccc4)cc3)c3c(N)nccc32)C1 |  | human, fasted, plasma | oral |  | ~2 h |
| Cc1cccc(C)c1OCC(=O)N[C@@H](Cc1ccccc1)[C@@H](O)C[C@H](Cc1ccccc1)NC(=O)[C@H](C(C)C)N1CCCNC1=O |  | human, HIV+/HCV+ with cirrhosis, plasma | oral, total drug, steady state, median, with: lopinavir/ritonavir twice daily |  | 7.1 h |
| CC(=O)c1c(C)c2cnc(Nc3ccc(N4CCNCC4)cn3)nc2n(C2CCCC2)c1=O |  | human | oral, 50 mg/m^2 repeated doses, day 21 |  | 19.5 ± 7 h |
| Cc1ccc(NC(=O)c2ccc(CN3CCNCC3)cc2)cc1Nc1nccc(-c2cccnc2)n1 |  | human, plasma | 400 mg/day imatinib, day 10 of cycle 1, metabolite of imatinib alone, mean |  | 36.2 h |
| CC(C)[C@H](N)C(=O)NCCCS(=O)(=O)O |  | human, both sexes, plasma | oral, 172 mg capsule |  | 0.87 ± 0.2 h |
| CCOc1ccc(Cc2cc([C@@H]3S[C@H](CO)[C@@H](O)[C@H](O)[C@H]3O)c(OC)cc2C)cc1 |  | human, plasma | oral, 5 mg/day, day 7, multiple dose before breakfast |  | 10.7 ± 2.4 h |
| C=CC[C@@H]1/C=C(\C)C[C@H](C)C[C@H](OC)[C@H]2O[C@@](O)(C(=O)C(=O)N3CCCC[C@H]3C(=O)O[C@H](/C(C)=C/[C@@H]3CC[C@@H](O)[C@H](OC)C3)[C@H](C)[C@@H](O)CC1=O)[C@H](C)C[C@@H]2OC |  | healthy humans, whole blood | oral, 5 mg single dose |  | 40 h |
| CN(Cc1cnc2nc(N)nc(N)c2n1)c1ccc(C(=O)N[C@@H](CCC(=O)O)C(=O)O)cc1 |  | human | oral, day 8, with: isavuconazole |  | 3.7 h |
| CCCCOC(=O)N1CCN(C(=O)[C@H](CP(=O)(O)O)NC(=O)c2cc(N3CC[C@H](OC)C3)nc(-c3ccccc3)n2)CC1 |  | healthy human, plasma | subcutaneous, 4 mg, with: rifampin 600 mg i.v. | geometric mean | 2.5 h |
| N#CCNC(=O)c1ccc(-c2ccnc(Nc3ccc(N4CCOCC4=O)cc3)n2)cc1 |  | human, plasma | oral, 100 mg momelotinib once daily, cycle 1 day 15, median, with: trametinib 1.0 mg once daily |  | 8.1 h |
| C[C@H](N)C(=O)N1C[C@H](CCCB(O)O)[C@](N)(C(=O)O)C1 |  | human, plasma | oral, 150 mg twice daily, cycle 1 day 15 |  | 7 ± 1.7 h |
| O=C(/C=C/c1cccc(S(=O)(=O)Nc2ccccc2)c1)NO[C@@H]1O[C@H](C(=O)O)[C@@H](O)[C@H](O)[C@H]1O |  | human severe liver dysfunction, plasma | intravenous, 400 mg/m^2, 30 min infusion, cycle 1 day -7, with: belinostat 400 mg/m^2 iv |  | 4.45 h |
| COc1cc2ncnc(Nc3ccc(F)c(Cl)c3)c2cc1OCCCN1CCOCC1 |  | human, plasma | oral, 250 mg, median |  | 22.6 h |
| CC(C)(Sc1ccncc1-c1ccc(C#N)c2ccccc12)C(=O)O |  | human | oral, 10 mg, with: febuxostat 40 mg |  | 8.26 h |
| CS(=O)(=O)n1cc2c(n1)CN([C@H]1CO[C@H](c3cc(F)ccc3F)[C@@H](N)C1)C2 |  | healthy male human, plasma | oral, 400 mg single, fasted, geometric mean |  | 42.5 h |

| SMILES | assay | test system | conditions | scale | half-life |
| --- | --- | --- | --- | --- | --- |
| CC[C@H](C)[C@@H]1NC(=O)[C@H](CCCNC(=N)N)NC(=O)[C@H](CC(=O)O)NC(=O)[C@H](CC(C)C)NC(=O)[C@H](CCCCN)NC(=O)[C@H](CC(C)C)NC(=O)CNC(=O)[C@H](Cc2ccccc2)NC(=O)[C@@H](NC(=O)CNC(=O)[C@H](CCCCN)NC(=O)[C@H](CO)NC(=O)[C@H](CC(C)C)NC(=O)CNC(=O)[C@H](CCCCN)NC(=O)[C@H](CCCCN)NC(=O)[C@H](CC(N)=O)NC(=O)[C@H](C)NC(=O)CNC(=O)[C@H](CCCCN)NC(=O)[C@H](Cc2ccc(O)cc2)NC(=O)[C@H](CCCCN)NC(=O)[C@H](CCCNC(=N)N)NC(=O)[C@H](C)NC(=O)[C@H](CC(N)=O)NC(=O)[C@@H]2CCCN2C(=O)[C@H](Cc2c[nH]cn2)NC(=O)[C@H](CCC(=O)O)NC(=O)[C@H](CCC(N)=O)NC(=O)CNC(=O)[C@@H]2CCCN2)CSSC[C@@H](C(=O)O)NC(=O)CNC(=O)[C@H](CC(C)C)NC(=O)CNC(=O)[C@H](CO)NC(=O)[C@H](CCSC)NC(=O)[C@H](CO)NC(=O)CNC1=O |  | human, plasma | subcutaneous, 15 µg/kg once daily, week 26 |  | 0.443 h |
| CCCCC1(CCCC)CN(c2ccccc2)c2cc(SC)c(OCC(=O)N[C@@H](C(=O)NCC(=O)O)c3ccccc3)cc2S(=O)(=O)C1 | LC-MS/MS | human, plasma | oral, 2.5 mg, single dose, fasted |  | 2.17 h |
| COCCc1ccc(OCC(O)CNC(C)C)cc1 (stereo not drawn) |  | healthy male humans, plasma | oral, at end of metamizole treatment |  | 3.4 h |
| Cc1ccc(NC(=O)c2ccc(CN3CCN(C)CC3)cc2)cc1Nc1nccc(-c2cncc(-c3oncc3C)c2)n1 |  | older healthy human adults, plasma | oral, 175 mg single dose, fed, mean |  | 36.6 h |
| CO[C@H]1C[C@@H]2CC[C@@H](C)[C@@](O)(O2)C(=O)C(=O)N2CCCC[C@H]2C(=O)O[C@H]([C@H](C)C[C@@H]2CC[C@@H](OCCO)[C@H](OC)C2)CC(=O)[C@H](C)/C=C(\C)[C@@H](O)[C@@H](OC)C(=O)[C@H](C)C[C@H](C)/C=C/C=C/C=C/1C |  | healthy adult human, blood | 0.75 mg single dose, harmonic mean, compound alone |  | 42.4 h |
| COC(=O)N[C@@H](C)CNc1nccc(-c2cn(C(C)C)nc2-c2cc(Cl)cc(NS(C)(=O)=O)c2F)n1 |  | human, plasma | oral, dual combination |  | 3 to 4 h |
| O=C(c1cccnc1-c1ccncc1)N1CCC(O)(Cc2ccccc2)CC1 |  | healthy human, plasma | oral, 300 mg once daily, day 14, arithmetic mean |  | 4.22 h |
| C=CC(=O)N1CCC([C@@H]2CCNc3c(C(N)=O)c(-c4ccc(Oc5ccccc5)cc4)nn32)CC1 |  | human | oral, 480 mg, single dose, mean |  | 8.1 h |
| CCN1CCN(Cc2ccc(Nc3ncc(F)c(-c4cc(F)c5nc(CO)n(C(C)C)c5c4)n3)nc2)CC1 |  | human patients, plasma | oral, 150 mg, single dose, geometric mean |  | 13.3 h |
| Cc1[nH]c(/C=C2\C(=O)Nc3ccccc32)c(C)c1CCC(=O)O |  | human patients | oral, 500 mg/m^2 twice daily, after meal, dose 55 |  | 2.96 ± 0.718 h |
| Cc1cccc(C)c1N(CC(=O)Nc1ccc(-c2ncon2)cc1)C(=O)C1CCS(=O)(=O)CC1 |  | human male, plasma | oral, 400 mg single dose, geometric mean, alone |  | 7.4 h |
| CC(C)(C)OC[C@@H]1C(=O)NCCN1C(=O)C[C@H](N)Cc1cc(F)c(F)cc1F |  | human | 20 mg once daily, day 10, steady state |  | 38.8 ± 5.7 h |
| COCCCCn1c(C(=O)N(CC(C)C)[C@@H]2CNC[C@H](C(=O)N3CCOCC3)C2)nc2ccccc21 |  | non-elderly human, plasma | oral, 80 mg once daily, day 7 |  | 11 h |
| O=CC[C@@H](O)[C@H](O)[C@H](O)CO | HPLC-fluorescence | human patients, plasma | oral, 45 mg/kg/day, cycle 2 |  | 8.2 ± 1.9 h |
| CCCC[C@H](NC(C)=O)C(=O)N[C@H]1CCC(=O)NC[C@@H](C(=O)N[C@@H](Cc2c[nH]c3ccccc23)C(N)=O)NC(=O)[C@H](CCCNC(=N)N)NC(=O)[C@@H](Cc2ccccc2)NC(=O)[C@H](Cc2c[nH]cn2)NC1=O |  | healthy human volunteers, plasma | subcutaneous, 3.0 mg once daily, day 1 |  | 9.7 h |
| CCS(=O)(=O)N1CC(CC#N)(n2cc(-c3ncnc4[nH]ccc34)cn2)C1 |  | healthy Chinese human subjects, plasma | oral, 10 mg, single dose, mean |  | 7.23 h |

A few entries again:
| SMILES | assay | test system | conditions | scale | half-life |
| --- | --- | --- | --- | --- | --- |
| CCCCOC(=O)N1CCN(C(=O)[C@H](CP(=O)(O)O)NC(=O)c2cc(N3CC[C@H](OC)C3)nc(-c3ccccc3)n2)CC1 |  | healthy human, plasma | subcutaneous, 4 mg, with: rifampin 600 mg i.v. | geometric mean | 2.5 h |
| O=C(c1cccnc1-c1ccncc1)N1CCC(O)(Cc2ccccc2)CC1 |  | healthy human, plasma | oral, 300 mg once daily, day 14, arithmetic mean |  | 4.22 h |
| CCOc1ccc(Cc2cc([C@@H]3S[C@H](CO)[C@@H](O)[C@H](O)[C@H]3O)c(OC)cc2C)cc1 |  | human, plasma | oral, 5 mg/day, day 7, multiple dose before breakfast |  | 10.7 ± 2.4 h |
| COc1cc2ncnc(Nc3ccc(F)c(Cl)c3)c2cc1OCCCN1CCOCC1 |  | human, plasma | oral, 250 mg, median |  | 22.6 h |
| O=CC[C@@H](O)[C@H](O)[C@H](O)CO | HPLC-fluorescence | human patients, plasma | oral, 45 mg/kg/day, cycle 2 |  | 8.2 ± 1.9 h |
